# Published values pooled from the literature.
# Every numbered part comes from another study and shows a few of its results, in no order.

# Series 1
# Target: Histone acetyltransferase KAT6A, winged helix 1, GST fusion (KAT6A, Homo sapiens, UniProt Q92794, residues 1-85)
# Technique: protein binding microarray
# Molecule type: double-stranded DNA, one strand shown
# Medium: in vitro
# Tested at: not given
# Notes: 8-mer, flanks averaged, mean of 2 arrays, mostly near background
# Reference: not given
# Direction: higher = stronger binding
# Construct (chain): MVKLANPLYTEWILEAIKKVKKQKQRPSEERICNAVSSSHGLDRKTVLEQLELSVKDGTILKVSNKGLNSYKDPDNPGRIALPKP
Strand,E-score
AAGACATT,0.0331
ATGCTACG,0.0905
CCATTCGC,0.0419
GCCTTCCA,-0.109
CTCAGGGA,-0.263
ATAGAGAG,-0.172
CAGCAGAG,-0.212
CATGAGCG,0.303

# Series 2
# Target: Prothrombin, mature alpha-thrombin (F2, Homo sapiens, UniProt P00734)
# Technique: aptamer microarray, sandwich
# Molecule type: DNA with 2'F-ANA
# Medium: in vitro
# Tested at: 200 nM
# Notes: whole 15-mer aptamer, many near background
# Added: Cy3 exosite-II aptamer, 400 nM
# Direction: higher = stronger binding
# Strand: GGTTGGTGTGGTTGG
Modification,mean fluorescence intensity [a.u.]
2'F-ANA at 1 2 4 8 9 10 12 14,52.9
2'F-ANA at 1 4 6 7 8 9 12 15,236
2'F-ANA at 1 2 4 5 8 9 10 11,45.8
2'F-ANA at 1 2 6 9 11 12 14,69.5
2'F-ANA at 1 2 3 4 7 15,193
2'F-ANA at 3 4 7 10 12,491
2'F-ANA at 1 2 5 6 8 9 12 15,110

# Series 3
# Target: Interferon regulatory factor 7, full length, phosphomimetic (IRF7, Homo sapiens, UniProt Q92985, residues 1-503, S101K/S471D/S472D/S475D/S476D/S477D/S483D/S484D/S487D)
# Technique: protein-binding microarray
# Molecule type: double-stranded DNA, one strand shown
# Medium: in vitro
# Tested at: 250 nM
# Notes: 60-bp whole probe
# Added: salmon DNA 0.4 mg/ml
# Reference: random background probes
# Direction: higher = stronger binding
# Shared flanks, not repeated: GCCTAGCAC … GTCTTGATTCGCTTGACGCTGCTG
# Construct (chain): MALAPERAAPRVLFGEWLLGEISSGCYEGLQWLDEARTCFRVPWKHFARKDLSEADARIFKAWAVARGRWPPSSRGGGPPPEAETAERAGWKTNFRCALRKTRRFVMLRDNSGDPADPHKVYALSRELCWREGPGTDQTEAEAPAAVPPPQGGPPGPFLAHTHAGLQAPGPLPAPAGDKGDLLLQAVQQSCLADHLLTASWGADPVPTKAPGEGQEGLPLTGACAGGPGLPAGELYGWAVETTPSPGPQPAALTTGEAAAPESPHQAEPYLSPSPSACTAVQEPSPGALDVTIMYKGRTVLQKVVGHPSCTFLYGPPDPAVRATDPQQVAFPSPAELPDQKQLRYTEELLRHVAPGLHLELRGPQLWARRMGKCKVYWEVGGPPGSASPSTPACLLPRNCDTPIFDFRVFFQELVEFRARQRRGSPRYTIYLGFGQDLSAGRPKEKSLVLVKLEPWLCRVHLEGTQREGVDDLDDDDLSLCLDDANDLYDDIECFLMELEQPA
Strand,log fluorescence [z-score]
TCCATCATTGCTTTCTCTTTGTGCTAG,0.666
TTAGATCTCAGATTGGATTAGTGCTAG,-0.008
TCAATTCTCTACTTGTGACTGTGCTAG,1.27
GAAGAACTGGGGACTGGAGACGTGCTA,-0.821
TTAGGTTTCGACTTTCTGTTAGTGCTA,10.2
TTAGGTATCGACACTGGGTAAGTGCTA,-0.0755
GACGATTTGGGGTTTCGAGACGTGCTA,2.18
GACGGTCTCCGTATCCTGACGTGCTAG,-0.0608
GACGAACTGAGCTTCGAGACGTGCTAG,-0.142

# Single results of other studies
Substance,target,test,system,setting,how to read,endpoint,value
"PhoQ, residues 284 288 289 292 302 303 TTSMTC","PhoP, residues 12 14 15 18 19 LYHSL (Escherichia coli, UniProt P23836)","Sort-seq, item: YFP reporter",E. coli,"PhoQ-PhoP variant library, added: 10 µM Mg2+","reference: high Mg2+ state, higher = stronger signaling",fold induction,1.46

# A few entries again (series 1):
Strand,E-score
CAGCAGAG,-0.212
AAGACATT,0.0331
CCATTCGC,0.0419
